{"data": "Experimental data pooled from the literature", "note": "Lines come from different studies, so protocols differ. Values joined by “and” are separate records of one study, mostly repeats; a detail may differ. ± gives the spread as reported."}
{"SMILES": "COc1cccc(OC)c1-c1cc(C(=O)NC2(C(=O)O)C3CC4CC(C3)CC2C4)nn1-c1ccc(C(=O)N(C)CCOCCOCCN(C)C(=O)[C@H](CCCCNC(=O)[C@H](CC(C)C)NC(=O)C2OC2C(=O)O)NC(=O)CN2CCN(CC(=O)[O-])CCN(CC(=O)[O-])CCN(CC(=O)[O-])CC2)cc1C(C)C.[177Lu+3] (mixture of isomers)", "tested on": "HT-29 tumour model", "system": "host not given, stomach", "conditions": "7 days, tumour-bearing", "endpoint": "tracer uptake", "result": "0.039 %ID/g"}
{"SMILES": "FC(F)(F)c1cc2nc(c1)CNCc1cc(C(F)(F)F)cc(n1)CNC2.[Cu+2]", "tested on": "Cu(II)/Cu(I) redox couple", "test": "cyclic voltammetry", "system": "DMF", "conditions": "with: TBAP", "how to read": "baseline: Fc/Fc+", "endpoint": "anodic peak potential", "result": "-575 mV"}
{"SMILES": "N#C[C@@H]1CC(F)(F)CN1C(=O)CNC(=O)c1ccnc2c(NC(=O)[C@H](CCCCNC(=O)CCOCCOCCOCCOCCOCCOCCNC(=O)CN3CCN(CC(=O)[O-])CCN(CC(=O)[O-])CCN(CC(=O)[O-])CC3)NC(=O)CCCc3ccc(I)cc3)cccc12.[177Lu+3]", "tested on": "U-87 MG tumour model", "system": "host not given, liver", "conditions": "72 h, tumour-bearing", "endpoint": "tracer uptake", "result": "1.81 %ID/g"}
{"SMILES": "Cl.NCc1ccc2c(c1)CN(C1CCC(=O)NC1=O)C2=O (stereo not shown)", "tested on": "H929", "conditions": "concentration not given, 72 h", "endpoint": "minimum viability", "result": "98% and 98.4%"}
{"SMILES": "CC(C)OCCOCc1ccc(OCC(O)CN(N=O)C(C)C)cc1 (stereo not shown)", "tested on": "Salmonella typhimurium", "test": "Ames test", "system": "TA98", "conditions": "158 µg/plate, without metabolic activation", "how to read": "baseline: solvent control", "endpoint": "revertant fold increase", "result": "0.8 fold"}
{"SMILES": "COc1cc2nc(c1)CNCc1cc(OC)cc(n1)CNC2.[Cu+2]", "tested on": "Cu(II)/Cu(I) redox couple", "test": "cyclic voltammetry", "system": "DMF", "conditions": "with: TBAP", "how to read": "baseline: Fc/Fc+", "endpoint": "cathodic peak potential", "result": "-861 mV"}
{"SMILES": "CC(C)(C)NCC(SS(=O)(=O)O)c1ccccc1 (stereo not shown)", "tested on": "Schistosoma mansoni", "test": "perfusion day 44", "system": "infected Swiss Webster mice", "conditions": "600 mg/kg single dose, dosed day 1 post-infection", "how to read": "baseline: vehicle control", "endpoint": "body weight decrease", "result": "9%"}
{"SMILES": "COCC1CN(C2CCN(c3cc(OC)c(Nc4ncc(Br)c(Nc5ccc6c(c5P(C)(C)=O)OCCO6)n4)cc3C)CC2)C1", "system": "EGFR-mutant NSCLC patients", "conditions": "oral, 10 mg once daily", "endpoint": "grade ≥3 treatment-related AEs", "result": "0%"}
{"SMILES": "Ic1cc2nc(c1)CNCc1cc(I)cc(n1)CNC2.[Cu+2]", "tested on": "Cu(II)/Cu(I) redox couple", "test": "cyclic voltammetry", "system": "DMF", "conditions": "with: TBAP", "how to read": "baseline: Fc/Fc+", "endpoint": "cathodic peak potential", "result": "-737 mV"}
{"SMILES": "CCN(CC)CC#CCNc1ccnc2cc(Cl)ccc12", "tested on": "Salmonella typhimurium", "test": "mini-Ames test", "system": "TA102", "conditions": "500.0 µg/well, with rat liver S9", "endpoint": "mean revertants", "result": "87 revertants/well"}
{"SMILES": "C=C(NC(=O)c1csc(-c2nc3c(cc2O)-c2nc(cs2)C(=O)NC(C(C)O)C(=O)NC(=C(C)OC)c2nc(cs2)C(=O)NC2c4nc(cs4)C(=O)NC(COC(=O)c4c5c6c(cccc6n4O)COC(=O)C(OC4CC(C)(O)C(N(C)C)C(C)O4)C2OC5)c2nc-3cs2)n1)C(N)=O (stereo not shown)", "system": "cynomolgus monkey, female, plasma", "conditions": "intravenous infusion, 3 mg/kg single dose", "endpoint": "clearance", "result": "112 mL/h/kg"}
{"SMILES": "CNC(=O)C1CCCN(C(=O)C2CC3CCC2N3C(=O)[C@@H]2C[C@@H](O)CN2C(=O)NCc2cccc(Cl)c2F)C1 (mixture of isomers)", "tested on": "CYP3A4 (human)", "test": "inhibitor, time-dependent inhibition", "conditions": "16.7 µM, preincubated without NADPH, with: testosterone substrate", "how to read": "baseline: negative control", "endpoint": "remaining activity", "result": "101%"}
{"SMILES": "COc1cccc(OC)c1-c1cc(C(=O)NC2(C(=O)O)C3CC4CC(C3)CC2C4)nn1-c1ccc(C(=O)NCCNC(=O)[C@H](CCCCNC(=O)[C@H](CC(C)C)NC(=O)C2OC2C(=O)O)NC(=O)CN2CCN(CC(=O)[O-])CCN(CC(=O)[O-])CCN(CC(=O)[O-])CC2)cc1C(C)C.[177Lu+3] (mixture of isomers)", "tested on": "HT-29 tumour model", "system": "host not given, stomach", "conditions": "4 h, tumour-bearing", "endpoint": "tracer uptake", "result": "0.42 %ID/g"}
{"SMILES": "O=C1C2CC3CC1CC(C(=O)N1CCN(c4ccc([N+](=O)[O-])c5ncccc45)CC1)(C3)C2", "tested on": "Escherichia coli", "test": "Ames test", "system": "WP2 uvrA pKM101", "conditions": "0.78 µg/well, without S9", "how to read": "baseline: vehicle", "endpoint": "revertant fold increase", "result": 1}
{"SMILES": "N#C[C@@H]1CCCN1C(=O)CNC(=O)c1ccnc2ccc(OCCCN3CCN(C(=O)CCc4ccc5c(c4)CN4CCN6CC(=O)[O][68Ga-]([O]C(=O)C4)([O]5)[O]c4ccc(CCC(=O)N5CCN(CCCOc7ccc8nccc(C(=O)NCC(=O)N9CCC[C@H]9C#N)c8c7)CC5)cc4C6)CC3)cc12", "tested on": "U-87 MG tumour model", "system": "host not given, intestine", "conditions": "2 h, tumour-bearing", "endpoint": "tracer uptake", "result": "2.67 %ID/g"}
{"SMILES": "N#C[C@@H]1CC(F)(F)CN1C(=O)CNC(=O)c1ccnc2c(NC(=O)[C@@H](N)CCCCNC(=O)CCOCCOCCOCCOCCOCCOCCNC(=O)CN3CCN(CC(=O)[O-])CCN(CC(=O)[O-])CCN(CC(=O)[O-])CC3)cccc12.[177Lu+3]", "tested on": "U-87 MG tumour model", "system": "host not given, pancreas", "conditions": "1 h, tumour-bearing", "endpoint": "tracer uptake", "result": "0.37 %ID/g"}
{"SMILES": "Nc1nc2cc(C(=O)c3ccc(F)cc3)ccc2[nH]1", "tested on": "Salmonella typhimurium", "test": "Ames preincubation test", "system": "TA1537", "conditions": "78.0 µg/plate, without S9", "endpoint": "revertants", "result": "13.7 revertants/plate"}
{"SMILES": "COc1cccc(OC)c1-c1cc(C(=O)NC2(C(=O)O)C3CC4CC(C3)CC2C4)nn1-c1ccc(C(=O)N(C)CCCN(C)C(=O)[C@H](CCCCNC(=O)[C@H](CC(C)C)NC(=O)C2OC2C(=O)O)NC(=O)CN2CCN(CC(=O)[O-])CCN(CC(=O)[O-])CCN(CC(=O)[O-])CC2)cc1C(C)C.[177Lu+3] (mixture of isomers)", "tested on": "HT-29 tumour model", "system": "host not given, stomach", "conditions": "24 h, tumour-bearing", "endpoint": "tracer uptake", "result": "0.097 %ID/g"}
{"SMILES": "O=C(Nc1cnccc1-c1ccc([18F])cc1)c1ccnc(NC(=O)C2CC2)c1", "system": "mice, transgenic, GSK-3β, early-stage, spleen", "conditions": "intravenous, dose not given, 120 min, with: tariquidar 15 mg/kg i.v. pre-dose", "endpoint": "SUV", "result": 0.28}
{"SMILES": "N#C[C@@H]1CC(F)(F)CN1C(=O)CNC(=O)c1ccnc2c(NC(=O)CCOCCOCCOCCOCCOCCOCCNC(=O)[C@H](CCCCNC(=O)CN3CCN(CC(=O)[O-])CCN(CC(=O)[O-])CCN(CC(=O)[O-])CC3)NC(=O)CCCc3ccc(I)cc3)cccc12.[177Lu+3]", "tested on": "U-87 MG tumour model", "system": "host not given, liver", "conditions": "48 h, tumour-bearing", "endpoint": "tracer uptake", "result": "0.94 %ID/g"}
{"SMILES": "N#C[C@@H]1CCCN1C(=O)CNC(=O)c1ccnc2ccc(OCCCN3CCN(C(=O)CCc4ccc(O)c(CN5CCN6CC(=O)[O][Al-]([18F])([O]C(=O)C5)[O]c5ccc(CCC(=O)N7CCN(CCCOc8ccc9nccc(C(=O)NCC(=O)N%10CCC[C@H]%10C#N)c9c8)CC7)cc5C6)c4)CC3)cc12 (stereo partly shown)", "tested on": "U-87 MG tumour model", "system": "host not given, liver", "conditions": "2 h, tumour-bearing", "endpoint": "tracer uptake", "result": "4.42 %ID/g"}
{"SMILES": "O=C1NC2(CC2)COc2ncc(F)cc2[C@H]2COCCN2c2ccn3ncc1c3n2", "tested on": "Salmonella typhimurium", "test": "Ames test", "system": "TA97a", "conditions": "500 µg/plate, 48 h, with: rat liver S9", "endpoint": "revertant colonies", "result": "102 ± 17 revertants/plate"}
{"note": "Repeated from above:"}
{"SMILES": "O=C(Nc1cnccc1-c1ccc([18F])cc1)c1ccnc(NC(=O)C2CC2)c1", "system": "mice, transgenic, GSK-3β, early-stage, spleen", "conditions": "intravenous, dose not given, 120 min, with: tariquidar 15 mg/kg i.v. pre-dose", "endpoint": "SUV", "result": 0.28}
{"SMILES": "N#C[C@@H]1CC(F)(F)CN1C(=O)CNC(=O)c1ccnc2c(NC(=O)CCOCCOCCOCCOCCOCCOCCNC(=O)[C@H](CCCCNC(=O)CN3CCN(CC(=O)[O-])CCN(CC(=O)[O-])CCN(CC(=O)[O-])CC3)NC(=O)CCCc3ccc(I)cc3)cccc12.[177Lu+3]", "tested on": "U-87 MG tumour model", "system": "host not given, liver", "conditions": "48 h, tumour-bearing", "endpoint": "tracer uptake", "result": "0.94 %ID/g"}
